Measurements of several laboratories.
Every numbered part comes from another study and shows a few of its results, in no order.

Series 1 — method: competition protein-binding microarray; molecule type: double-stranded DNA, one strand shown; sample: in vitro; concentration: 2 µM; added: Cbf1 competitor, 0.05 µM; reading: higher = stronger binding; constant ends, left off below: … GTCTTGATTCGCTTGACGCTGCTG
Target: Phosphate system positive regulatory protein PHO4, full length, GST-tagged (PHO4, Saccharomyces cerevisiae, UniProt P07270, residues 1-312)
Notes: whole 60-bp probe, lowest competitor level
Construct (chain): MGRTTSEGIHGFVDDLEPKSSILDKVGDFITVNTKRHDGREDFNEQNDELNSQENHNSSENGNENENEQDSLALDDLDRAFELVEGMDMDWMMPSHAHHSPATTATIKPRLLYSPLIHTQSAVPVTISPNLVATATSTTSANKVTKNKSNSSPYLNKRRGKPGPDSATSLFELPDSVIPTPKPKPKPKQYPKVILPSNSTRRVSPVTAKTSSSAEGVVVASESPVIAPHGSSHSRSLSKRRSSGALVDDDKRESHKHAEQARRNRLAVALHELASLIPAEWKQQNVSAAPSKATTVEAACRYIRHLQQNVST
Sequence | fluorescence intensity
GTTGTTATTTTTTAGGTCGTGATGGGTGTTCCTTGT | 6850 a.u.
GTTTCAAAAACCGGCCACGTACCCAAAGGTCGCCCG | 6430 a.u.
GAGAATGCCTTTGTCCATGTGATAAACCGTCCAAAA | 6560 a.u.
CTTCTGTAAATTTGTCACAAAACTTGACGCGCCCCG | 2670 a.u.
AAATTACTAAGTTGGCCAGTGGGTGACGCCGTATGA | 3410 a.u.
AAGACAAATGGTCGGCCCGTGACGGTTGCAGGCCCA | 4980 a.u.
AATATTGGCCTTTTGCACGTTCGCGACTAAACGAGT | 12400 a.u.
AAAACCCTAACAATACACATGATGCAACTGGAACGC | 7630 a.u.
CGCTAATTTCCTACCCACGTGCTTTAAATAACAATT | 19500 a.u.
CGGGGTTAAGTTTGGACGGTGGGTGGCTTGCAGCAG | 4340 a.u.
CATCACCTTCCTTAGCACGGGTTCTTGCTGTCTGCT | 10900 a.u.
CTAACGAAGGTTTGTCTAGTGGGTGACAAGCCAAGT | 3720 a.u.
AAAGCGGTAATTTGTTACGTGGGTGCAGATATCTAT | 6140 a.u.
CAATACTCTTTGTCCCACGATGCAACTTTGAAAGGT | 11300 a.u.
ACAAAAATGACGGAACTCGTGACTCGAGTCAAAAGC | 6630 a.u.
CATACCCAACCTTGAATCGTGGGTGAAGATATTTGT | 7430 a.u.
ACCTCAAGTGATGGGTACGTGGGTAGTCAGGCTTCC | 7540 a.u.
TTTCTAATTGGCCATCACGTTCAATAGTGGCTCTGA | 8490 a.u.
AATATGCACTGCAACTTCGTGCTTTATTTCAATATC | 8190 a.u.
CTTTCCCGATCTTGATGAGTGGGTGTAGCACATTTG | 4430 a.u.
CGGGGTTAAGTTTGCCCTGTGGGTGGCTTGCAGCAG | 5500 a.u.
GGCCAGATCAATCAGCTCGTGTGGATAGGTTAGGTT | 8720 a.u.
CATACCCAACCTTGAGACGTGGGTGAAGATATTTGT | 7020 a.u.
CATACCCAACCTTGTCACCCGACTTAAGATATTTGT | 3550 a.u.

Series 2 — method: protein binding microarray; molecule type: double-stranded DNA, one strand shown; sample: in vitro; concentration: not given; reference: not given; reading: higher = stronger binding
Target: Histone acetyltransferase KAT6A, winged helix 2, GST fusion (KAT6A, Homo sapiens, UniProt Q92794, residues 85-181)
Notes: 8-mer, flanks averaged, mean of 2 arrays, mostly near background
Target sequence (chain): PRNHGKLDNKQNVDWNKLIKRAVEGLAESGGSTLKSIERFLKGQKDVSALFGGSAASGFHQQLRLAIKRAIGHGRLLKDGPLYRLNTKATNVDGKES
Sequence | E-score
CGATCATC | -0.091
GTGAGTTA | 0.0291
GAACGAGA | -0.0483
TATGCTCA | 0.00709
TGAGGGAA | -0.0289
ACTATCAG | -0.0905
AGGATTCC | -0.127
TGGTTGAA | -0.0343
CTGTACAA | -0.00397
ACCGTCCG | 0.0982
CATGATAC | 0.0344
AATGATAT | 0.134
ATGCCTGA | 0.0665
AACTACCT | -0.127
AAAACCGT | -0.0824
ACGGTCGA | -0.14
GAGATGAA | 0.0074
AAATGACA | -0.0518
TAGCTTCA | -0.0929

Series 3 — method: RNAcompete; molecule type: RNA; sample: in vitro; concentration: 20 nM; notes: 7-mer, probes averaged, single round; reference: mean of 7-mers; reading: higher = stronger binding
Target: PABPC1L2, full length, GST fusion (mouse, UniProt A0ABA7IW68)
Sequence | 7-mer Z-score
UAUGUCU | -0.18
CCUGUGC | -0.217
GGAGCAA | 0.427
GCGGGAA | 0.265
AAGUGGG | 0.863
UUCAGCG | -0.287
GAUUAGA | -0.112
CGUUAUC | -0.374
CCGUAGU | -0.454
UGUCAGA | -0.171
CGGCUGA | -0.0464
AACGCCC | 0.0442
AGUCCAU | -0.277
UGGAGGC | 0.318
GAGGGCC | 0.0605
GAGUAGA | 0.075
AUAGUAC | -0.139
CACCAGG | -0.0844
CACUAUA | -0.0301
GAACUUG | -0.204
CGGCUGG | -0.13
CCAGUAU | -0.219
GAAUCCC | -0.248
GGAACAG | 0.285
UAAUGUA | -0.13

Series 4 — method: EMSA with sequencing; molecule type: double-stranded DNA, one strand shown; sample: in vitro; concentration: 10 and 20 nM; reference: negative control set to 0; reading: higher = stronger binding
Target: Hepatocyte nuclear factor 3-alpha (Foxa1, Mus musculus, UniProt P35582, residues 1-468, full length assumed)
Chain of UniProt P35582 (whole entry, looked up): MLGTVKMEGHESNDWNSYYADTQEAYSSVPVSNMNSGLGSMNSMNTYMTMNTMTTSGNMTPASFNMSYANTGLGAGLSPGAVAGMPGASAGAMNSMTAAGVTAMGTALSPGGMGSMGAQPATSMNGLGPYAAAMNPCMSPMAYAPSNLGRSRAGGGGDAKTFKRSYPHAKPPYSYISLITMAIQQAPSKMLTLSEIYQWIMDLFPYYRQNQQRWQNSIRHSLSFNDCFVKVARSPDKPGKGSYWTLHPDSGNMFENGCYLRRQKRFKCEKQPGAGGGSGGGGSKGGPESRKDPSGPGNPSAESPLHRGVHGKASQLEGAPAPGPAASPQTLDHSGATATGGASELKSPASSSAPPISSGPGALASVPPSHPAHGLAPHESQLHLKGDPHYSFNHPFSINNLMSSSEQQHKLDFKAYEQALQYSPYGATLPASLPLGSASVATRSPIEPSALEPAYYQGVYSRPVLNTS
Notes: whole designed probe, mean of two concentrations, ends assumed
Constant ends, left off below: GTGAGCGGTGCCCATTGATGGGGAAC … TTTCACTGGGATCGTGGGGAC
Sequence | normalised bound fraction [ratio]
CCACATCACACTGTTGCCACAAGCAGGATACAGTCATCACACAAACAGAGGATTATTACTTCTCAGCCACTCTTCTGCTATCTTCTTACTGAGTAAACATCGAGAACTCAGTCCTTTGTGATGTACTAATATGAAACAGGAAAGGGAAAGCCCTAGGTGGCCATGATATAGTTAGTGCCTACGTTTCCAAGAA | 0.377
GCCGTTGGTTCATGCTGTGGCTACTGCCAATTCTTTAAGTGTTCCCTCACCTCAAATCTTTGATGCACGAGGTCCAGCAGTCGTCACTACTAAGTCAACACTGAGACATGTAAATGTTTGTGAAATGAGTAATAACCAGGATGGTACAATTAAGCTCCCCATGAGCTCCTCCCCACTGCCACCTCAGGCCTCA | 0.314
GGACACAGCCAGAGGCCATGAGTGCTCAGGAGTGCCATAAACTGTGATTTTGAGACTGATAACTGGGTGTGTCGGCCAGGCTAAATAGCTTGTTGTTTGCCTTTTTATATTTGAGGCCTATAAAAAAATAGTGAGAAAATAGCAAGATGCCCAGGAGACAGGTGATCTGATTCAGCCAGGGGGTGGGAGGTGG | 0.0486
GTCAAAAAAATATATATATGGTAAATTTGAAGAATGGTTAAAGAAGTGGGTGAACAGCCTTGGCATTTTCTCAACACTATAATTTTTTTGGTTGTTTACTTTGTTTTTTCTTGTAATTAAGTAATAATAAAAAGTTCAATAACAACAGCTCACTTTTTTGAAGAATGGTTAAAGAAGTGGGTGAGCAGCCTTG | 0.367
CTCCAGGGTAGTTGTCCTTCCTGTGGCTGCTCACTGATCCAGGCTACTTTGATCTTGTGACTCAAAGTTCAACAAAATGTGGATGCGTCATTTTATTTACACTTCTTACGAAATCAATGGCCAGAAGGCCTCATCCAGTTGCAAGAAGTTTGGGAAATGTAGCCTTCCATATTTACAGGAATAAATGAAAAAC | 0.33
ACGTTACAAGCACAGGGTGTACAGAAGCATTCCTGTTTCCATGAGTGAATCAACACAGCAATGCCCTACGTGCCAACAGAGCATGAGCTCATGTATTTACTCAACCTTGCTTTCTGTGTTAGAAAGAGCCCTGCATTAGGAAATCTGGACTCCCAGAGACAAAGGGTCACGCATGCCGGCCTCCTGACCTCAG | 0.257
GAGGGGACGCCCTGGAGCTCAGGTGCTCAAGGGCGTGCGCGGGGCTCGGCCGCCGGTGTCCCTGGAGATGCTTCTCTGGTCTGGTGTGACACGTGTGTACACAGTCCCCGCCCTCTCGTGAGCGCCCGGGTGCGTGTGCTCCCTCCCGACCACCCTGAGGAGCGAGGGTGCTGGTCCCCGAGAGGGCGGCGAG | 0.152
CTAGCTCCAGTCTTAGCATGGCAATTTCTTCCCGCAACATACTATTTTCATGCAAGAAGTCTCTTTCTTTCTTACAACTAAGAGAAAGCTAAGTAAACAAAGAGAACTTTTAGTTAGCACTCAATAGATTGACATAACATGATTTCTTTTGAAATTCAAAAATAACATGTATTTGTATAATGAAAGAATCCCC | 0.498

Series 5 — method: RNA Bind-n-Seq; molecule type: RNA; sample: in vitro; concentration: 365 nM; reference: no-protein control; reading: higher = stronger binding
Target: RNA binding protein fox-1 homolog 2, RRM domain, GST-SBP tag (RBFOX2, Homo sapiens, UniProt O43251-10, residues 100-194)
Notes: natural RNA segment, single round, ends assumed
Constant ends, left off below: GGGAGUUCUACAGUCCGACGAUC … UGGAAUUCUCGGGUGCCAA
Residues (chain): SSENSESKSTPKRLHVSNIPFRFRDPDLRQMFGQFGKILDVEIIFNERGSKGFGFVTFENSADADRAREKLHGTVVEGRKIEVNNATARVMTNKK
Sequence | RBNS enrichment (R)
UUGCCUCCCUUCUUAAAGCUAGCAGGCUCAGUUUACAAACCUGUGAGCUACUGUUGGCUGCUGCCCUCCUUCCCAGUGAAAGGUACAGAGCAAUAAGCAUCAUGCAUCUC | 0.553
CAUAAAGGGGCUACCUUGAGAGAAAAUACAAACGCUCUCCUGUUGAUGAUUUGUGCAUUUUAAAAAAUGAGUUUCUUUCCCUCUUAGCACCCCUCCUUCCUGUCUGGUUA | 0.43
UCACCUACGGAUUAUUUCUCUUUCUCGCCUGCCCUUAGGAUCUUAAGCUAAAGGGCACUGUUUAUUUCAUGAAACCUUUAAACAUGUCAAAAUGUUUAGUAUAAGAACAC | 0.445
AGACUACAGGAGUUAACAGAUGGCCAGCUCCUUAUUUUUUAAUGUAGAAUAACUCCUGAGUUUAUAUCAAAUCCUGAAGAAAUAAGCCUCAGUUUUCCAUCUGUUUUUGA | 0.686
UUGCUGGCAUGUCUCCUUCACAAUCAGGCGUGGGAAUAUCUGGCUUAGGACUGUUUCUCUCUAAGACACCAUUGUUUUCCCUUAUUUUAAAAGUGAUUUUUUUAAGGACA | 0.368
AGCUCGUCUCUUCCUAGCAAGCAAAGGGUUAAAGAAGCCACCACCUGGGUGUCAGUGGGAAGGAGACAGCAGAGCUCAGGCUUUGCCCUUUGACAGAAACCUAAAGACAC | 0.437
GAAGAAAACAUUUGAAUUUACCUUCAUAUGCCACUAAGAACAAAAGCUCUGAAGUUCUUCCUGCUGGCACCAAAUAUUAGGAUUACAAGCUGUCUCUCUGACACCAGUGG | 0.236
UCACAGGGAAAAGAAGGAUUAUAUAGACUUCCUAUCCCUAGAGUUUAUAAAUGUCAACUAUAUAAAAAAAGCUCAAAACAGUGUUAAAGGAAUGAACAGUAGAAUUUUAA | 0.948
CCAGGAUGACUUGGAUCUGGGAAGGGCGUGUCAUCUCAGUUUGUUCCUCCCGCACCCCUCCUCCCCCUGCUUCCUGUGGGAUCAGAGUAAGGCUCCUGUUGGCCAGUAGC | 1.22
UGGGACCAGGCCCCGGAUCCUCACGGGCAACCCUCGAGUAGACCUUCAGGAGAUUAACAACUGGGUGCAGGCCCAGAUGAAAGGGAAGAUUGCCCGGUCCACGAGGGAAA | 0.55
CCACCAUUAUGGUUCCACUGGCUGUUUGUAUAUAGGGUUAUGUAUUAACUCUAGAAUCCCGUGUGCCCUUCUUGCUCACCGAACGUGAGAGUAUGGGCUGAGCAGGGGGA | 0.36
GCUCUCCCUAGUCCUAGUGUGUGCACAUGCAGUUCUUUCCUGCCUUCGACCUUUAACAACAUUUUCUGUCUAUGCAAAGAAAGCUGCAGGCCUCAUUCAGUUCUGCAGAC | 0.38

Repeated from above (series 3):
Sequence | 7-mer Z-score
CCUGUGC | -0.217
UAUGUCU | -0.18
GAGGGCC | 0.0605
UGUCAGA | -0.171
UAAUGUA | -0.13
GAAUCCC | -0.248
GAGUAGA | 0.075
AACGCCC | 0.0442
GAACUUG | -0.204
GCGGGAA | 0.265
